Assay results pooled from the literature.
A part holds a random share of what one study measured.
Sequence of UniProt P53350 (whole entry, looked up): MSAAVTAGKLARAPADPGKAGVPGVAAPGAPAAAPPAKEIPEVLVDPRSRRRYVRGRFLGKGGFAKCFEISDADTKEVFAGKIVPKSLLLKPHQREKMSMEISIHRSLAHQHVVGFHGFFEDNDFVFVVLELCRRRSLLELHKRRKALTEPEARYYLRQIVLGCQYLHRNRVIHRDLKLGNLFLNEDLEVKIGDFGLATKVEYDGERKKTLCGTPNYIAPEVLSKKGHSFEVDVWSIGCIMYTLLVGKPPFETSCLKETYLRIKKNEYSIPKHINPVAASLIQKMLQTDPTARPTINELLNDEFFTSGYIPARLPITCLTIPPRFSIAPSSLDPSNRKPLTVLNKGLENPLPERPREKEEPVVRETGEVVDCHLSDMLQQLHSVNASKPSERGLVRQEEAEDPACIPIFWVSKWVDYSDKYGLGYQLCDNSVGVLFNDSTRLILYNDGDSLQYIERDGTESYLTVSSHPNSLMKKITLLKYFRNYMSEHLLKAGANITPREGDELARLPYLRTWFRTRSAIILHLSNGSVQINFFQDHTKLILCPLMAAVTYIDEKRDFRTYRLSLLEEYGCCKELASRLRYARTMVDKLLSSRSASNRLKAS
Sequence of UniProt P49760 (whole entry, looked up): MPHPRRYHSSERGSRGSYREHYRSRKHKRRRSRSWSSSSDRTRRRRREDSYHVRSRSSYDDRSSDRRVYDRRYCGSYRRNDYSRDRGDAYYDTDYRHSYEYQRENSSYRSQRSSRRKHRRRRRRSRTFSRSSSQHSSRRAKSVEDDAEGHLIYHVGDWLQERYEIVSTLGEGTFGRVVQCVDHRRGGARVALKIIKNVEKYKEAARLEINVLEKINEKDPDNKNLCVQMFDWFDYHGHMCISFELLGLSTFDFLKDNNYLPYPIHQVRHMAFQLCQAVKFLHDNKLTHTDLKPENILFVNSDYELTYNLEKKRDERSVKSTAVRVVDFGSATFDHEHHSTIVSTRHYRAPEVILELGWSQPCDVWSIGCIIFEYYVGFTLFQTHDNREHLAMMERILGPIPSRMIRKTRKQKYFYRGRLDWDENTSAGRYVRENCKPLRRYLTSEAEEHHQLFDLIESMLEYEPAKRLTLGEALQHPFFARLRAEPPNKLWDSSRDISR
Sequence of UniProt Q9H1R3 (whole entry, looked up): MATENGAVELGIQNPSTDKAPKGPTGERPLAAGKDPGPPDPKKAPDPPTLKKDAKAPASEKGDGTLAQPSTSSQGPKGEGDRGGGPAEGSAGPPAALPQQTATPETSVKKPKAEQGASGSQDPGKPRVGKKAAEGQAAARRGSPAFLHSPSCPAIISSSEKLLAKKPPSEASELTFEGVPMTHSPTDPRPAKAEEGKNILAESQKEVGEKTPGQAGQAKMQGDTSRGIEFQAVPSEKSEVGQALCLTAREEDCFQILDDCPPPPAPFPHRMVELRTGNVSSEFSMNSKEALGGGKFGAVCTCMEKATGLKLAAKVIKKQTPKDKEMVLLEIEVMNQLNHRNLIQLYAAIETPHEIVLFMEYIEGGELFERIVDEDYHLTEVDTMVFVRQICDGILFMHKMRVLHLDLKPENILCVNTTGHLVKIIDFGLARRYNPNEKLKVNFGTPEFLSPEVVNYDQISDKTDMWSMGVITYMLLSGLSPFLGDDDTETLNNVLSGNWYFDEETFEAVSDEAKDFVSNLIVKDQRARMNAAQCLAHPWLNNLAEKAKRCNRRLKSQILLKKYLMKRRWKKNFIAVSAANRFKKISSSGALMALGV
Sequence of UniProt P51957 (whole entry, looked up): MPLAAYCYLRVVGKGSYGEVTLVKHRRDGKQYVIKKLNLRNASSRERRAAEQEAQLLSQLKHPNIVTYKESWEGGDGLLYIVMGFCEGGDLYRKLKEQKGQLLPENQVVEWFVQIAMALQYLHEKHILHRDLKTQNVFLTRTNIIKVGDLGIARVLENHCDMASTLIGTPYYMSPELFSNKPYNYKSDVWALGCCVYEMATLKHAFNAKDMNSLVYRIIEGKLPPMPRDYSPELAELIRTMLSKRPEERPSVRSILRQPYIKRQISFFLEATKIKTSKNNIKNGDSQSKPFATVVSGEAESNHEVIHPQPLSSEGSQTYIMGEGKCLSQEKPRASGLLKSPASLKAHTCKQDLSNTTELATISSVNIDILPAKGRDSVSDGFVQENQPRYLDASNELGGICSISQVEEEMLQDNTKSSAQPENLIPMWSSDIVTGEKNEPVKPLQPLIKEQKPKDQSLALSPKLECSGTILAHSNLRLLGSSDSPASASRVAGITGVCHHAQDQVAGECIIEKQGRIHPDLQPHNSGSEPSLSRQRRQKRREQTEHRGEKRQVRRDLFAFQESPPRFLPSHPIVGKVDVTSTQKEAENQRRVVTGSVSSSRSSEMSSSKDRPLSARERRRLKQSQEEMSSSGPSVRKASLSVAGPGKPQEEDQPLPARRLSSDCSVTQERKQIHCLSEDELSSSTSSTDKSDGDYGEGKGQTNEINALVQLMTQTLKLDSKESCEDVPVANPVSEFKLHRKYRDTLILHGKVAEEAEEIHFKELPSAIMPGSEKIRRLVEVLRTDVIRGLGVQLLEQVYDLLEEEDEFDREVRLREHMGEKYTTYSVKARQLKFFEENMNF
Sequence of UniProt P42336 (whole entry, unmodified, looked up): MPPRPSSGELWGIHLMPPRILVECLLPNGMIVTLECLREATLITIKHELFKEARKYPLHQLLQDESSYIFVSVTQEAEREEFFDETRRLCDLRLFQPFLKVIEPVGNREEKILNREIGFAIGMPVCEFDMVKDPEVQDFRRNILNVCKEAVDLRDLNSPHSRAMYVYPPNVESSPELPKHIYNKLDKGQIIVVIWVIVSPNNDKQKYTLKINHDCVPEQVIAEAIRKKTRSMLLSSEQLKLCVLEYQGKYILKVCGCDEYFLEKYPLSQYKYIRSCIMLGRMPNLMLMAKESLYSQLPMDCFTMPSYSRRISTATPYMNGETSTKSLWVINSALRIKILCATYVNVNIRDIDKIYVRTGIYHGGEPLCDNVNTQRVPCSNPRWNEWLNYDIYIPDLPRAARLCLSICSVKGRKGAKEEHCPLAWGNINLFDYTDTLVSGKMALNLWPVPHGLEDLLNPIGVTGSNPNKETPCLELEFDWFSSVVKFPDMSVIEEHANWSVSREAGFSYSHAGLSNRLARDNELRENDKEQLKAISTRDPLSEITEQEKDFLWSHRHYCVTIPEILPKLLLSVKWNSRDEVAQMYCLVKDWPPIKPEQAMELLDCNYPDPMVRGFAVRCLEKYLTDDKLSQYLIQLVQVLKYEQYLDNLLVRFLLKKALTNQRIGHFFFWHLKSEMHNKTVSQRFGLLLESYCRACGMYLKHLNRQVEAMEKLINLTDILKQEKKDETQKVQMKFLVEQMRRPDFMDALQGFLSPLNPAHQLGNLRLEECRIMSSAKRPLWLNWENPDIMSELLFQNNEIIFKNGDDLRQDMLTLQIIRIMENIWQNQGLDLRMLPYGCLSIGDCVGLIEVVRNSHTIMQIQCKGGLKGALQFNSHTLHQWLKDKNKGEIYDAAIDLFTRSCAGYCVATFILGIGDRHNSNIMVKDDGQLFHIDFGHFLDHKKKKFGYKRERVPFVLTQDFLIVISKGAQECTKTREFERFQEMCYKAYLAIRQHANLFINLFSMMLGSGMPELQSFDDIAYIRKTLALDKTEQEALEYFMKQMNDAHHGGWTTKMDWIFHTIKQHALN

Study 1
Target: Prothrombin, mature alpha-thrombin (F2, Homo sapiens, UniProt P00734)
Method: aptamer microarray, sandwich
Molecule type: DNA with 2'F-ANA
Matrix: in vitro
Tested at: 200 nM
Setting: whole 15-mer aptamer, many near background
Together with: Cy3 exosite-II aptamer, 400 nM
Reading: higher = stronger binding
Oligonucleotide: GGTTGGTGTGGTTGG
`2'F-ANA at 3 6 7 11 13 14`: “mean fluorescence intensity” 603 a.u.
For `2'F-ANA at 1 2 4 7 8 10 11 13 15`, “mean fluorescence intensity” read 51.1 a.u.
For `2'F-ANA at 2 7 9 10 13`, “mean fluorescence intensity” read 124 a.u.
For `2'F-ANA at 1 2 3 6 8 9 10 12 14 15`, “mean fluorescence intensity” read 55.2 a.u.
For `2'F-ANA at 3 6 11 13 14 15`, “mean fluorescence intensity” read 465 a.u.
Under “mean fluorescence intensity”, `2'F-ANA at 7 8 12 13 15` is recorded as 762 a.u.
`2'F-ANA at 1 2 3 4 7 8 9 12 13 15` — result for “mean fluorescence intensity”: 255 a.u.
For `2'F-ANA at 1 3 5 7 8 9 14 15`, “mean fluorescence intensity” read 50.1 a.u.

Study 2
Target: Probable WRKY transcription factor 11, DNA-binding domain (WRKY11, Arabidopsis thaliana, UniProt Q9SV15, residues 228-325)
Method: DNA-protein interaction ELISA
Molecule type: double-stranded DNA, one strand shown
Matrix: in vitro, bacterial lysate
Tested at: not given
Setting: whole dsDNA probe, crude lysate protein
Baseline: highest signal in screen
Reading: higher = stronger binding
Construct (chain): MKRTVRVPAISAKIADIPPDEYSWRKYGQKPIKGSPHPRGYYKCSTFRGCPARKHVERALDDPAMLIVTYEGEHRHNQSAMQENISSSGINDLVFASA
The relative absorbance of `AAAAAATATGTTTTCGCTTTATTCTTAAAA` is reported as 13 % of maximum.
`AAAAAATTCCGGCTTGACGCTGCATAAAAA` gave a relative absorbance of 16.7 % of maximum.
With `AAAAAAACATCCACACCCGCGGCGCGAAAA` the relative absorbance was 13.3 % of maximum.
The relative absorbance of `AAAAAAAGGGTGCTATTCGTCGACACAAAA` is reported as 15.3 % of maximum.
The relative absorbance of `AAAAAAACAGCTCGGTGCCACTGTGGAAAA` is reported as 16.7 % of maximum.
With `AAAAAAATGGTGCCGCTGAGCAAATTAAAA` the relative absorbance was 13.5 % of maximum.
For `AAAAAAGTACATGCGTAGATAATGTTAAAA`, the relative absorbance was 14.4 % of maximum.
For `AAAAAAGGTTTAGCCCATGCCTGTGCAAAA`, the relative absorbance was 16.1 % of maximum.

Study 3
Target: Interleukin-1 receptor-associated kinase 1 (IRAK1, Homo sapiens, UniProt P51617)
Sequence of UniProt P51617 (whole entry, looked up): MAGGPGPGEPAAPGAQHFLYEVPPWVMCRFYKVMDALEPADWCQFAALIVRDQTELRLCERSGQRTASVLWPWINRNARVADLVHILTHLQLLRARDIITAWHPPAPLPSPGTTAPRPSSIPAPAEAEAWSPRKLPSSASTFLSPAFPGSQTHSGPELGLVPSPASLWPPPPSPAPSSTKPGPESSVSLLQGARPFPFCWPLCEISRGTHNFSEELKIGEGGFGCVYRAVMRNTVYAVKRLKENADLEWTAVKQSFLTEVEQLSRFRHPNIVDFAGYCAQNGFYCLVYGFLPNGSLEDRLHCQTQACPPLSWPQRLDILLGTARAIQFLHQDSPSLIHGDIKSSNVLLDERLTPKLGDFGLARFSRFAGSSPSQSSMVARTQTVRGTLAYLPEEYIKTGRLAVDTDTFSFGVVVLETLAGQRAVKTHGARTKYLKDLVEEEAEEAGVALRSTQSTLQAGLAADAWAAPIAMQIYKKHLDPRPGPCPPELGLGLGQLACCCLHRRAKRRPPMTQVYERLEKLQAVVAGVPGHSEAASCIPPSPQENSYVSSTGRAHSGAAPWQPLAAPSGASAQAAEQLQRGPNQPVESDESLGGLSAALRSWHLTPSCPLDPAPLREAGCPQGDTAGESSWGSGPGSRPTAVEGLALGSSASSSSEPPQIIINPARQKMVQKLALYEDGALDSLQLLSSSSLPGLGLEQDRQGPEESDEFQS
Effect on: enzyme activity
Action: inhibitor
Tested at: 0.5 µM
Baseline: control
`COc1ccc2c(c1)c(C1=C(c3c[nH]c4ccccc34)C(=O)NC1=O)cn2CCCN(C)C` has a remaining activity of 89%.
The remaining activity of `CCCNC(=O)Nc1ccc(Oc2ncnc3cc(OC)c(OC)cc23)cc1Cl` is reported as 106%.
`Cc1ccc(S(=O)(=O)/C=C/C#N)cc1` gave a remaining activity of 103%.
`CN(C)S(=O)(=O)c1ccc2c(c1)/C(=C/c1cc3c([nH]1)CCCC3)C(=O)N2` gave a remaining activity of 5.59%.
The remaining activity of `O=C1Cc2c([nH]c3ccc(Br)cc23)-c2ccccc2N1` is reported as 98.6%.
The remaining activity of `O=c1cc(N2CCOCC2)oc2c(-c3ccccc3)cccc12` is reported as 104%.

Study 4
SMILES: N#CC1(c2ccccn2)CCN(Cc2cc(C(=O)N3CCCC3)c(=O)n3ccccc23)CC1
Effect on: cell-free assay
Method: competition with immobilised ligand
Tested at: 1 µM
The remaining binding was 100% (CLK2 (Homo sapiens, UniProt P49760)).
The remaining binding was 67% (EGFR (Homo sapiens, UniProt P00533, del747-752/P753S)).
It gave 100% for remaining binding (PLK1 (Homo sapiens, UniProt P53350)).
The remaining binding was 87% (MYLK2 (Homo sapiens, UniProt Q9H1R3)).
The remaining binding was 88% (NEK4 (Homo sapiens, UniProt P51957)).
For PIK3CA (Homo sapiens, UniProt P42336, E542K): remaining binding read 90%.

For quick reference, copied from above (study 2):
`AAAAAATTCCGGCTTGACGCTGCATAAAAA` gave a relative absorbance of 16.7 % of maximum.
With `AAAAAAACATCCACACCCGCGGCGCGAAAA` the relative absorbance was 13.3 % of maximum.
The relative absorbance of `AAAAAAAGGGTGCTATTCGTCGACACAAAA` is reported as 15.3 % of maximum.
The relative absorbance of `AAAAAAACAGCTCGGTGCCACTGTGGAAAA` is reported as 16.7 % of maximum.
